Assay results of several laboratories.
Parts stem from different laboratories: compare values within a part only.

Series 1
Target: Interferon regulatory factor 5, full length, phosphomimetic (IRF5, Homo sapiens, UniProt Q13568-2, residues 1-514, S451D/S453D/S456D/S462D)
Technique: protein-binding microarray
Form: double-stranded DNA, one strand shown
Matrix: in vitro
Tested at: 940 nM top
Notes: 60-bp whole probe
With: salmon DNA 0.4 mg/ml
Baseline: random background probes
Direction: higher = stronger binding
Endpoint: fitted relative affinity
All sequences stand within: GCCTAGCAC … GTCTTGATTCGCTTGACGCTGCTG
CACGGTTTCGGGACTGGGGACGTGCTA: 6.2 z-score
AACGGTTTCGGGACTGGGGACGTGCTA: 7.19 z-score
TCAGGTATGGCCTATTTAACTGTGCTA: -0.61 z-score
GACGATATCGGGGTTCGAGACGTGCTA: 0.0645 z-score
TTAGGCCTGGACTTTCGGTTAGTGCTA: 2.16 z-score
TTAGATATCAGTCTCGAGTAGTGCTAG: 0.991 z-score
GACGGACTGGGTTACGGGACGTGCTAG: -0.4 z-score
ATATATGTAATCATTCACCTGGTGCTA: 0.0653 z-score
CTAGGTATCGGGACTGGGTTAGTGCTA: 3.51 z-score
ATTTTTTTCTAAGTAAACCCGTGCTAG: 0.541 z-score
GACGGACTGGACACTGGGAACGTGCTA: -0.417 z-score
TCAGGTTTTTTTTTAATACTGTGCTAG: 0.536 z-score
TTAGACATCAGACTGGATTAGTGCTAG: -0.614 z-score
TTAGGACTGCTACGGCTTTAGTGCTAG: -0.492 z-score
GACGATTTGGGGTTTCGAGACGTGCTA: 2.41 z-score
TTAGGTATCCATATCCTTTAGTGCTAG: 0.431 z-score
TTAGATATCAGCCTGGATTAGTGCTAG: -0.322 z-score
TTAGATATCAGGATCGATTAGTGCTAG: -0.0191 z-score

Series 2
Target: Sal-like protein 4, full length isoform B (SALL4, Homo sapiens, UniProt Q9UJQ4-2, residues 1-616)
Technique: universal PBM
Form: double-stranded DNA, one strand shown
Matrix: in vitro
Tested at: not given
Notes: 8-mer, flanks averaged, mean of replicates
Direction: higher = stronger binding
Endpoint: E-score
TACCTCAA: 0.0329
AGGATTTC: -0.0312
GCCTGAAC: -0.183
ACGTGATA: 0.136
GGGCCCTA: -0.179
AAGTTGTG: 0.129
ATAGGCCA: -0.019
CCCTTTAA: -0.00227
ATATCCCG: -0.0138
AGTTGTAC: 0.131
GATTTTAA: 0.206
ACAGGCAG: -0.0626
ACTCGCCA: -0.0721
ATGCTAGG: 0.00638
ACTCGCAA: 0.123
GCGGAAAC: -0.101
TCCCGACA: -0.0558
ACCTTTGG: -0.12
GAACCCAC: -0.236

Series 3
Target: RNA binding protein fox-1 homolog 2, RRM domain, GST-SBP tag (RBFOX2, Homo sapiens, UniProt O43251-10, residues 100-194)
Technique: RNA Bind-n-Seq
Form: RNA
Matrix: in vitro
Tested at: 365 nM
Notes: natural RNA segment, single round, ends assumed
Baseline: no-protein control
Direction: higher = stronger binding
Endpoint: RBNS enrichment (R)
All sequences stand within: GGGAGUUCUACAGUCCGACGAUC … UGGAAUUCUCGGGUGCCAA
Target sequence (chain): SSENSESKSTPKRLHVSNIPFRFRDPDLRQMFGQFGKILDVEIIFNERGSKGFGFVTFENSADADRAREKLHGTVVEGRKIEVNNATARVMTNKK
CAUGCUAAUAUUUGUGAGACAUGAAAACUAUUUCAAAGCCAACUUUGUUGUCUUGUUGUAUAAGAAAUCUAGGUAGGUGCUUUCAACUAGAGUGUUGACCUUGUUAAGAC: 0.349
UACACAUAACUGACUGGAAAGAAUUAAUUUCUUUCCCCCAGCUUAAUGCAUGUUGAGGAUAUUGAGCUAUUUUUCAUCUUAAAGGUAUUAGGCACUUUUGUUGGAGCCUG: 0.657
CGCAGGAGCAGGAGUGGCUCCAAGCUGUGCUCUCCAUGAACUCUGGCUCUGGGGAGAUUUCUAGUAACUCUUCAAUCUGUACUUUCUGUGCCCGCCUCGGUUUUGAGUUG: 0.432
CUACUUCUGUGUCUGUGCUAUGUGGGGGUGCAACUUCUGCCUGGUGGUUUGUGACAUGGCAGAUCAGAAGUGCCUCCUUGUAGGUUCAUUGGUCUCUGGAAUAAGUGCCA: 15.9
CUAAAUUCUUUACCAUCAGAAAGAAAAGGAGUGUCAUACACUUUCAAGGGAAGGCUUGGUCUGCGUUUUCUGUGUUUGGAUUAUUUUUAUACUUUGCUGAUCUUUAAGCU: 0.812
CUCAGGAUAUGGGGCCAAUCUCUGUGAGUCCAGCAUGUACCUGUCUCUCCCUAGUGUCCCUUCAGCCUGGGCUGACCAGUGCCCGCCUCUGGGCUUGACCAGUUCCCAAU: 7.53
GUGCUAAUGUAGCUGAUUUUAGUCUCCUUGUCCCACUUACACUAUGCAGUAUCUCCUAACUUCAGUGCACUCUGCUAGAACAGUACAUUUGCUGUAUUUACUGAAAUCUC: 2.09
GCUUUGGGCACAGCCUGCUGUCUUUUCCAUUUCCUAAAGUUUACUUCAUUGUCUUGAGGCUUCCAGGUUUUGUUUUUGUUUUUGCCAAAGUAGAAAAGGCAGGUGGUGGG: 1.01

Series 4
Target: Histone acetyltransferase KAT6A, both winged helices, GST fusion (KAT6A, Homo sapiens, UniProt Q92794, residues 1-181)
Technique: protein binding microarray
Form: double-stranded DNA, one strand shown
Matrix: in vitro
Tested at: not given
Notes: 8-mer, flanks averaged, mean of 2 arrays, mostly near background
Baseline: not given
Direction: higher = stronger binding
Endpoint: E-score
Construct (chain): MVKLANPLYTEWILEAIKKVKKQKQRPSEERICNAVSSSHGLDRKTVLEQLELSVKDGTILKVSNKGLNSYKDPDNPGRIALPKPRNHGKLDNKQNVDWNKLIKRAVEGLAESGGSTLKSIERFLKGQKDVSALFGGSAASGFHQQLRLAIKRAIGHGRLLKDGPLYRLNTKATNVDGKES
ACTGGTAC: -0.0593
ATATCTAC: 0.0287
CAAAAGAG: -0.125
AAATGGTA: -0.148
GGATCCTA: 0.0273
TCGATTAA: 0.00418
ACACGCCC: 0.0864
CTAACAGC: -0.125
CGCACCCG: 0.288
GATCTTGA: -0.0457
GGGGTCTA: 0.00402
ATGCCGCA: 0.202
TACATCTA: -0.173
ACCAATAA: -0.02
ATGGAGGG: -0.257
GCGGCCGA: 0.334
ATTAAATA: 0.0341
CGAATAAG: -0.0227
CGGTAGTA: 0.116
ACACTGAA: -0.124
CACTGCCA: -0.149
AGTGCACC: -0.0986
GAAGAACA: -0.0157
CGTTAAGA: -0.0219
CGAACTTC: -0.0249

Series 5
Target: Ras GTPase-activating protein-binding protein 1, full length (G3BP1, Homo sapiens, UniProt Q13283)
Sequence of UniProt Q13283 (whole entry, looked up): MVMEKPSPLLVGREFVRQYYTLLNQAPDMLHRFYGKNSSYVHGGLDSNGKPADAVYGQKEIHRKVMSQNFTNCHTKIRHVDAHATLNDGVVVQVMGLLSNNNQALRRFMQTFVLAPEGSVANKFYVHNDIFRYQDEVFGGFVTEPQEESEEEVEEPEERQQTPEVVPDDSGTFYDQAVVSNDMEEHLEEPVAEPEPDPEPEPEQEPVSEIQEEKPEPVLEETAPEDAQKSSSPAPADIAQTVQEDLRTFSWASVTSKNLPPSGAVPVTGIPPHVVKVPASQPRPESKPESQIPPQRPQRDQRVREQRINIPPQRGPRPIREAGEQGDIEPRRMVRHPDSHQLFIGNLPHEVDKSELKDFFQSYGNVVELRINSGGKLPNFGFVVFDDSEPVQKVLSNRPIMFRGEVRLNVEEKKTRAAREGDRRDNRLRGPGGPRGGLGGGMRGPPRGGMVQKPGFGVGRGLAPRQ
Technique: RNA Bind-n-Seq
Form: RNA
Matrix: in vitro
Tested at: 200 nM
Notes: whole 134-nt RNA, ends assumed
With: 150 mM KCl
Baseline: input library
Direction: higher = stronger binding
Endpoint: log2 enrichment
All sequences stand within: GGGAGUUCUACAGUCCGACGAUC … UGGAAUUCUCGGGUGUCAAGG
CCUGUGCUACACAUCGUAUGUACCGAAUCGGGGUUUUUUUGGGGUGGGGUUUUUUUGGGGAAAGUAUUAUGUUACGCCGUUCGGAUCUGC: 0.173
UCCUGUGCUACACAUCGUAUGUACCGAAUCGGGAAAAAAAGGGUUUUUUUGGGUUUGGGAAAGUAUUAUGUUACGCCGUUCGGAUCUGCA: -0.544
CAAGUCCUGUGCUACACAUCGUAUGUACCGAAUCGGAAAAAGGUUUGGAAAAAGGAAAGUAUUAUGUUACGCCGUUCGGAUCUGCACUUC: -1.28
CUCAAGUCCUGUGCUACACAUCGUAUGUACCGAAUCGGAGGUUUUUUUGGUGGAAAGUAUUAUGUUACGCCGUUCGGAUCUGCACUUCCA: -0.493
UCAAGUCCUGUGCUACACAUCGUAUGUACCGAAUCGGGUUUGGGGUUUGGUUUGGAAAGUAUUAUGUUACGCCGUUCGGAUCUGCACUUC: -0.353
CCUGUGCUACACAUCGUAUGUACCGAAUCGGGGUUUUUUUGGGGUUUUUUUGGGGAGGGGAAAGUAUUAUGUUACGCCGUUCGGAUCUGC: 0.208
GUCCUGUGCUACACAUCGUAUGUACCGAAUCGGGUUUUUUUGGGUUUGGGUUUUUGGGAAAGUAUUAUGUUACGCCGUUCGGAUCUGCAC: -0.4
CACAGACAACACGCACCCACACAGACACAGAGGGAAGGGGUUGGGAUGGGGACAGGGUGCACAGCAGGGCGGGGUAGGACUCCAGCCCCU: 1.98
CCUGUGCUACACAUCGUAUGUACCGAAUCGGGGAAAAAAGGGGAAAAAAGGAAAAAAGGGAAAGUAUUAUGUUACGCCGUUCGGAUCUGC: -0.442

For quick reference, copied from above (series 4):
GCGGCCGA: 0.334
CGAACTTC: -0.0249
ATTAAATA: 0.0341
ATATCTAC: 0.0287
AAATGGTA: -0.148
TCGATTAA: 0.00418
CGTTAAGA: -0.0219
